Results of several laboratories.
Numbered parts are unrelated; each lists some results of a single study. Changes are numbered by the printed parent chain.
UniProt P08588, sequence (whole entry, looked up): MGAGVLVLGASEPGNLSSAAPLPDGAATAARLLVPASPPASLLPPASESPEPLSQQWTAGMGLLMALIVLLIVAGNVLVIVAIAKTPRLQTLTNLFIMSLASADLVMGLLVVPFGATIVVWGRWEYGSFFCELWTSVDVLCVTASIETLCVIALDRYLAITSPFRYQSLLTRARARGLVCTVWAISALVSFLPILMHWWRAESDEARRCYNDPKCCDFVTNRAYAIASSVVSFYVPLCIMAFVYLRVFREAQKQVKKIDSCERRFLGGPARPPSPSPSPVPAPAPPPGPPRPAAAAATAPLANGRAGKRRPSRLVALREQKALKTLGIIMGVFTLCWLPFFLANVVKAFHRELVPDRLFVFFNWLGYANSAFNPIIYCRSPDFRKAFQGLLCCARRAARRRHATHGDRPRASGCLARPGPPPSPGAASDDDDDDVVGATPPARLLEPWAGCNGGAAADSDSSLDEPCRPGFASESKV

Sample 1 — method: protein-binding microarray; molecule type: double-stranded DNA, one strand shown; medium: in vitro; tested at: 0.8 µM; setting: whole 60-bp probe, no competitor; reading: higher = stronger binding; endpoint: fluorescence intensity
Target: Centromere-binding protein 1, full length, N-terminal tag (CBF1, Saccharomyces cerevisiae, UniProt P17106, residues 1-351)
UniProt P17106, sequence (whole entry, looked up): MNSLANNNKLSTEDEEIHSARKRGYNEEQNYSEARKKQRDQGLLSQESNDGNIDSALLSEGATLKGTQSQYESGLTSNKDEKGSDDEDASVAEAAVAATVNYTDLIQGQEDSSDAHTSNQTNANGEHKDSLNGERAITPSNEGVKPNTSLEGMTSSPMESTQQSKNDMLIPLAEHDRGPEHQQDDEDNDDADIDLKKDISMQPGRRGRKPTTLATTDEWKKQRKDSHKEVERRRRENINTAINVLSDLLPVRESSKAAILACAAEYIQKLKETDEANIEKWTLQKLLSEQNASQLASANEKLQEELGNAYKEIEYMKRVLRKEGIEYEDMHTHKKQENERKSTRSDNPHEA
GAACTTTATTTATTGAACGTGTGATTCCCCTGATAGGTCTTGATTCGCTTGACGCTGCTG: 636 a.u.
GAACTCCCACCATTGAACGTGATTATGACTTCCTAGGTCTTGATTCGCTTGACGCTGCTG: 880 a.u.
GAAACACGGGCGGCATTCGTGATGACAATAGATTAGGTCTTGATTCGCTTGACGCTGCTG: 541 a.u.
CCTAACTACTATATGCACGGGGAATAGCTTCGTACAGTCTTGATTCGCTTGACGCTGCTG: 584 a.u.
CTATCATGCATACTTCATCTGACCAATATATTTTTCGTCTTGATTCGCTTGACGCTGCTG: 685 a.u.
TGTACGAAGCTATCACACGTGAATATAGTAGTTAGGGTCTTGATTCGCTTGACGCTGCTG: 2170 a.u.
GAATGTTTAATATGGCACGTCGCCTCATTCAAATAGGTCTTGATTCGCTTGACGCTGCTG: 951 a.u.
GAAGAGTCCCATCATCACGCCCATCCTTTTGCATAGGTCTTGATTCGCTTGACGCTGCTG: 584 a.u.

Sample 2 — target: CCNE1, cyclin fold, Cln2 fusion (human); method: yeast growth competition, sequencing; medium: yeast; setting: strong parent motif; baseline: not given; reading: higher = stronger binding; endpoint: normalised enrichment score
Parent: viral docking peptide; KKVKRRLFETREL; partner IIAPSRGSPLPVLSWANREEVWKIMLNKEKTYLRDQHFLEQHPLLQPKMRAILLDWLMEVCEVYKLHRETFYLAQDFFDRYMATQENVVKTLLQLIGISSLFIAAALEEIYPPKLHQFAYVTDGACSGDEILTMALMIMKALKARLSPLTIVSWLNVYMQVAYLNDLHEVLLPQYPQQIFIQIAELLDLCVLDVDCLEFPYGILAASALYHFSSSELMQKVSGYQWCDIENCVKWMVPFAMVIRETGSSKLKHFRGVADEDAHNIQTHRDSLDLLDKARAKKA
L13A: 5.65
R6A: 2.13
K2A: 5.71
R5K: 1.1
V3A: 3.92
L7A: 0.925
F8A: 0.196
R5A: 1.93

Other studies, line by line
PhoQ, residues 284 288 289 292 302 303 SLKLQV — fold induction (PhoP, residues 12 14 15 18 19 LQHIR (Escherichia coli, UniProt P23836); Sort-seq, measured: YFP reporter; E. coli; PhoQ-PhoP variant library, with: 10 µM Mg2+; baseline: high Mg2+ state, higher = stronger signaling): 15
COc1ccccc1N1CCN(Cc2ccc(C#N)cc2)CC1 — IC50 (ADRB1 (Homo sapiens, UniProt P08588); antagonist): ≥ 100 µM

Some of these lines once more (sample 2):
R5K: 1.1
V3A: 3.92
